Published values pooled from the literature.
Compare with care: the assays were run in different laboratories. ± gives the spread as reported.
Target: ATP-dependent translocase ABCB1 (ABCB1, Homo sapiens, UniProt P08183)
Sequence of UniProt P08183 (whole entry, looked up): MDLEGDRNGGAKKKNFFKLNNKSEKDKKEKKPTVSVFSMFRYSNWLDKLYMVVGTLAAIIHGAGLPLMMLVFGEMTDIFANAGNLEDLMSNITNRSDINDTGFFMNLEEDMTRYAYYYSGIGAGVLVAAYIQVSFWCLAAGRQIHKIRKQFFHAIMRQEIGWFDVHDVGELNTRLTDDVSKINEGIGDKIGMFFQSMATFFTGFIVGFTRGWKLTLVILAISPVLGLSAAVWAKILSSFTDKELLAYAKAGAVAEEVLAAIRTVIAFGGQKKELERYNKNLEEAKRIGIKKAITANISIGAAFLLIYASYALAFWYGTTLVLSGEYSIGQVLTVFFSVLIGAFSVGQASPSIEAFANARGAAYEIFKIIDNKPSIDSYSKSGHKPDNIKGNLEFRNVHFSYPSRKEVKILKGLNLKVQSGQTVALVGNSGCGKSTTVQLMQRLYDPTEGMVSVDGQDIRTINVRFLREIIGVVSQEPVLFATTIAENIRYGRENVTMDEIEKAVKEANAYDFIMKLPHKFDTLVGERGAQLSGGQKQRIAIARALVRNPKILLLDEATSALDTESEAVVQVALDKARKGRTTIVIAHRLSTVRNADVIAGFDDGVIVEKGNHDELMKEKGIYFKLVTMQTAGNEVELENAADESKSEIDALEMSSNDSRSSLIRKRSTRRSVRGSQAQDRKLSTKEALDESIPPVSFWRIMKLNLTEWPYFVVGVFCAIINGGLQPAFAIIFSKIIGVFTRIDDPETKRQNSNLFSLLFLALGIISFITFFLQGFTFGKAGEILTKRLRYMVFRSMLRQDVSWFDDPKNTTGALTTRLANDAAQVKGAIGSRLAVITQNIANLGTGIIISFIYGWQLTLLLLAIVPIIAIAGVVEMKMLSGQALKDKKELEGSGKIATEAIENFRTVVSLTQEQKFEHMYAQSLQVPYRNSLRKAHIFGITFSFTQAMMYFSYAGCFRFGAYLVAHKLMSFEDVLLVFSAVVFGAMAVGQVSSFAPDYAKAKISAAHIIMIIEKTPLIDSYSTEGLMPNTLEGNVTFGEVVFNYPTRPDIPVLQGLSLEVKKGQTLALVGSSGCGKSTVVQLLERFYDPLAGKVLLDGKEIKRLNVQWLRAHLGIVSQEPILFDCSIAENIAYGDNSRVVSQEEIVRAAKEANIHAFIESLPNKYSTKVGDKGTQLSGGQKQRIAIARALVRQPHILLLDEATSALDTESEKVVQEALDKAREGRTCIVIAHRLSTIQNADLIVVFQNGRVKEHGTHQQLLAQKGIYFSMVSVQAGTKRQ

Compound	assay	system	setting	scale	quantity	value
N[C@H]1[C@H](O[C@H]2[C@H](O)[C@@H](N)[C@H](O[C@H]3[C@H](O)[C@@H](N)[C@H](O[C@H]4[C@H](O)[C@@H](N)C(O)O[C@@H]4CO)O[C@@H]3CO)O[C@@H]2CO)O[C@H](CO)[C@@H](O)[C@@H]1O (some centres unmarked)	surface plasmon resonance				Kd	1290 µM
CNc1nc(N)nc2c1ncn2[C@@H]1O[C@H](CO[P@](=O)(O)N[C@@H](C)C(=O)O)[C@@H](O)[C@@]1(C)F	bidirectional transport	LLC-PK1, human MDR1, transfected with	10 µM, with: zosuquidar 1 µM		efflux ratio	1.12 ± 0.24
Cc1cc(C(=O)N[C@@H](CC(=O)NC(C)(C)C)C(=O)NCCNC(=O)c2cc(-c3ccccc3)ccn2)no1		ABCB1-expressing cell monolayer	10 µM	reference: B-A over A-B	efflux ratio	58
C/C(N)=N/C(=N\S(=O)(=O)c1ccc(C(F)(F)F)cc1)N1C[C@H](c2ccccc2)C(c2ccc(Cl)cc2)=N1		MDCK-MDR1 monolayers	5 µM, 120 min, pH 7.4, with: valspodar 1 µM		Papp B-A	5.4 ×10⁻⁶ cm/s
C=CC(=O)N1CC2C(=O)N(CCN(C)C)c3c(c4cc(Cl)c(-c5c(O)cccc5F)nc4n(-c4c(C)ccnc4C(C)C)c3=O)N2CC1C (centres unmarked)		MDCK-MDR1		reference: B-A over A-B	efflux ratio	3.5
CNc1nc(N)nc2c1ncn2[C@@H]1O[C@H](CO)[C@@H](O)[C@@]1(C)F	bidirectional transport	LLC-PK1, human MDR1, transfected with	10 µM, with: zosuquidar 1 µM		efflux ratio	1.24 ± 0.15
Cc1cc(C(=O)N[C@@H](CC(=O)NC(C)(C)C)C(=O)NCCNC(=O)c2cccc(-c3cc[nH]n3)c2)no1		ABCB1-expressing cell monolayer	10 µM	reference: B-A over A-B	efflux ratio	8.7
CC(C)(O)Cn1nc(-c2ccccc2)c2c(Cl)c(-c3ccccc3)nnc21		MDCK-MDR1 and wild-type MDCK	10 µM, 1 h, pH 7.4		effective efflux ratio	1

Repeated from above:
Compound	assay	system	setting	scale	quantity	value
N[C@H]1[C@H](O[C@H]2[C@H](O)[C@@H](N)[C@H](O[C@H]3[C@H](O)[C@@H](N)[C@H](O[C@H]4[C@H](O)[C@@H](N)C(O)O[C@@H]4CO)O[C@@H]3CO)O[C@@H]2CO)O[C@H](CO)[C@@H](O)[C@@H]1O (some centres unmarked)	surface plasmon resonance				Kd	1290 µM
